Published values of several laboratories.
A part holds a random share of what one study measured. Substitutions count along the parent as printed.

Study 1 — target: CCNF, cyclin fold, Cln2 fusion (human); method: yeast growth competition, sequencing; medium: yeast; setting: strong parent motif; baseline: not given; reading: higher = stronger binding
Starting sequence: AKAP12 docking peptide (human); GSPLKKLFTSTGL
`L4A` — result for “normalised enrichment score”: 0.474.
Under “normalised enrichment score”, `K5A` is recorded as 0.885.
Under “normalised enrichment score”, `S10A` is recorded as 1.66.
`G12A`: “normalised enrichment score” 0.686.
`F8L`: “normalised enrichment score” 0.913.
`T11A`: “normalised enrichment score” 1.11.
`G1A` — result for “normalised enrichment score”: 1.41.

Study 2 — method: universal PBM; molecule type: double-stranded DNA, one strand shown; medium: in vitro; concentration: not given; reading: higher = stronger binding
Target: Sal-like protein 4, full length isoform B (SALL4, Homo sapiens, UniProt Q9UJQ4-2, residues 1-616)
Setting: 8-mer, flanks averaged, mean of replicates
Residues (chain): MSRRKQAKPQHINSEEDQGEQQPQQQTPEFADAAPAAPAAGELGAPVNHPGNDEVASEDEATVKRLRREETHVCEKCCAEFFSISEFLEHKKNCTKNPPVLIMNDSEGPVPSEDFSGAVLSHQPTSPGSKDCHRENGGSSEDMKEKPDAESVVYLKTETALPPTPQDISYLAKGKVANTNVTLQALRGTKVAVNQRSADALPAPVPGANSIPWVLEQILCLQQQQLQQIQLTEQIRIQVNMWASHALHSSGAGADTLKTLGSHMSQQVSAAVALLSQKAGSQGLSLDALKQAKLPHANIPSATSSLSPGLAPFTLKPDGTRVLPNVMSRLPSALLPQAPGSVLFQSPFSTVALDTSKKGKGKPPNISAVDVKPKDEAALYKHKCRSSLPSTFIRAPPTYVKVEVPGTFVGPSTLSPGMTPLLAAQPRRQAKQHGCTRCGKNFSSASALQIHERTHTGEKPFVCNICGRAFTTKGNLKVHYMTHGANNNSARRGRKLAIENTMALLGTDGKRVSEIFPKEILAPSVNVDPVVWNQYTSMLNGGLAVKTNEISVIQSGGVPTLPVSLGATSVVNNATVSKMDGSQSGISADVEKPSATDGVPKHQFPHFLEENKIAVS
`CTTGGGCA` gave an E-score of -0.143.
`AGGGCATA` gave an E-score of 0.144.
`TCCGGAAA` has an E-score of -0.0567.
For `GCATAGAA`, the E-score was 0.0397.
`CCTGTAAG` has an E-score of -0.112.
`GTTGGCCA` gave an E-score of -0.297.
`TTGGACAA` gave an E-score of 0.116.
`GCAACCGA` gave an E-score of -0.128.
The E-score of `TAGTCAAA` is reported as 0.259.
`AAGGGCTC` gave an E-score of -0.17.
For `CACAACAC`, the E-score was 0.0979.
With `GCCGCCAC` the E-score was -0.359.
For `CGGCATCA`, the E-score was -0.144.
With `ACCGCGGG` the E-score was -0.368.
`CATTCAAG` gave an E-score of -0.0267.
`GAAATGCC` gave an E-score of -0.0952.
The E-score of `TGTCAACA` is reported as 0.122.
`CAAGATTC` has an E-score of 0.0186.
With `TCGCAAAA` the E-score was 0.142.
`GGTTCTTA` gave an E-score of -0.0915.
For `GTAAATTA`, the E-score was 0.315.
`GAACGTGC` gave an E-score of -0.136.
For `GAATACGC`, the E-score was -0.0193.
For `CAAGGTGC`, the E-score was -0.187.
`CATGTACA` gave an E-score of 0.179.

Study 3 — method: protein-binding microarray; molecule type: double-stranded DNA, one strand shown; medium: in vitro; concentration: 940 nM top; setting: 60-bp whole probe; together with: salmon DNA 0.4 mg/ml; baseline: random background probes; reading: higher = stronger binding; shared flanks, not repeated: GCCTAGCAC … GTCTTGATTCGCTTGACGCTGCTG
Target: Interferon regulatory factor 5, full length, phosphomimetic (IRF5, Homo sapiens, UniProt Q13568-2, residues 1-514, S451D/S453D/S456D/S462D)
Under “fitted relative affinity”, `TCATTTTTCTACTTCTGACTGTGCTAG` is recorded as 1.54 z-score.
`GACGGTATCGCGTATCGGGACGTGCTA` — result for “fitted relative affinity”: 1.98 z-score.
`TTAGGTCTCCTTATCCATTAGTGCTAG` — result for “fitted relative affinity”: 0.317 z-score.
`TTAGATTTCAGACTGGACTAGTGCTAG` — result for “fitted relative affinity”: -0.204 z-score.
`CCAGATTTCCCCACCATCTAGTGCTAG`: “fitted relative affinity” 0.803 z-score.
`TCATCATTGCCTATTTTTCAGTGCTAG` — result for “fitted relative affinity”: 1.17 z-score.
For `TCATTCCTCTCACCTCGGACTGTGCTA`, “fitted relative affinity” read 1.37 z-score.
Under “fitted relative affinity”, `TTAGGTAGCGGGTTTCGGTTAGTGCTA` is recorded as 5.69 z-score.
`CACGGTATCGGGACTGGGGACGTGCTA`: “fitted relative affinity” 2.89 z-score.
For `GAGGGTATCCTTTTCCTGACGTGCTAG`, “fitted relative affinity” read -0.1 z-score.
`AGGCTCATACATCTGGGTGGGTGCTAG`: “fitted relative affinity” -0.0715 z-score.
For `GACGATTACAGTATCGAGACGTGCTAG`, “fitted relative affinity” read 1.78 z-score.
Under “fitted relative affinity”, `TTAGGACGGGGGACTGGGTTAGTGCTA` is recorded as 1.85 z-score.
`TTAGATTCCAGTTTCGGTTAGTGCTAG`: “fitted relative affinity” 9.44 z-score.
`GACGGTTTCGAACTGGGGACGTGCTAG` — result for “fitted relative affinity”: 4.75 z-score.
Under “fitted relative affinity”, `GTCATTTTCTCTTATTCTAAGTGCTAG` is recorded as 2.61 z-score.
`TCATAAGCAAAAATGATACTGTGCTAG` — result for “fitted relative affinity”: 0.173 z-score.
Under “fitted relative affinity”, `ATCAGTTTAATATCTAAGATTGTGCTA` is recorded as 0.335 z-score.
`TTAGAACTGGGGTATCTATTAGTGCTA`: “fitted relative affinity” 0.535 z-score.
Under “fitted relative affinity”, `GACGGTTTCCTTTCCCTGGCGTGCTAG` is recorded as 2.59 z-score.
For `GACGGTATCGGTATCCGGACGTGCTAG`, “fitted relative affinity” read 10.1 z-score.
`GACGATATCAGACTGGGGACGTGCTAG` — result for “fitted relative affinity”: -0.184 z-score.

Study 4 — method: RNA Bind-n-Seq; molecule type: RNA; medium: in vitro; concentration: not given; baseline: input RNA pool; reading: higher = stronger binding
Target: RING finger protein unkempt homolog, zinc fingers 1-6, GST-SBP tag (UNK, Homo sapiens, UniProt Q9C0B0, residues 30-357)
Setting: RNA with constant flanks, human and mouse sites, ends assumed
Residues (chain): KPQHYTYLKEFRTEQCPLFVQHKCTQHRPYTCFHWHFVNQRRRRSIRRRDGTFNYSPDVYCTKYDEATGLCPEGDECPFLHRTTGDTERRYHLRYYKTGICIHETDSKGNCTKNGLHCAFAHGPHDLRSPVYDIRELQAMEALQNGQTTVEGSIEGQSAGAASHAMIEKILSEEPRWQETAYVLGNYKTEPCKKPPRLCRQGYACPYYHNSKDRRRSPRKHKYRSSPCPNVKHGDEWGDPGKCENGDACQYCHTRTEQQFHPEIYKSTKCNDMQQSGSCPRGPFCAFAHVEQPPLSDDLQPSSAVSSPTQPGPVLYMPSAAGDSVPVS
`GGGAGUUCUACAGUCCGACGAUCGGAAUUUACAUGGUCUAUUGCCGAAAACACAAGAAAACUGCACAUAACUCCGAAGCUGAUUUAGAAGAAAGUUUUAAUGAACAUGAACUGGAGCCCUCAUCACCUAAAAGUAAAAAGAAACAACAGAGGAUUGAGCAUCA` gave a bound/input enrichment of 0.486 ratio.
`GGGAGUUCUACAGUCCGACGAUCGACUUGGCCACUGUGAAUACCAAUCCAUUUGAUGAACCUGAUGUAACAGAAUUAAAUCCAUUUGGAGAUCCUGACUCAGAAGGUGUACAGACUCCACAGUAUUUGAACCCAUUUGAUGAACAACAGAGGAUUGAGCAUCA` has a bound/input enrichment of 0.24 ratio.
For `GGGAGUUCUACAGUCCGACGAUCAAGUGCUGGGAUCACUGUGUGCUACCACUUCCCACCCUAAUUUAAAGGGAAGCAAUUCUUCUGGUACCAUCUAAGCAGCCUCCUCUUCUACUUACAGCAGUGGGAUCCAACCAGCCUGAGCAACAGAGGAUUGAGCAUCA`, the bound/input enrichment was 0.254 ratio.
The bound/input enrichment of `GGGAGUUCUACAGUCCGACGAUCCUGUGGGCAUCCCUGCCUGCCUCUUGGGUACAGAGGCCUAGGGCAACUGUUCCUUUUUUUUUUUUUUUUUUAACCUAGUUCAAUGUUUCUUCUUUUCUUUGAGAUAAACUUAUUAAAAAACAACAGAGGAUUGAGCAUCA` is reported as 4.5 ratio.
The bound/input enrichment of `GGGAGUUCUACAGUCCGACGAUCAUCUGCCUACACGCCUUCUACUAUGCCAUAUGGAAGCGGUACGGGGCCCUCCCUGAGCGCUAUAACUGGCAACUCCAGGCCCCUGAUGUUCUCUUCUACCCUCUGAGACCAGAGCUAGUGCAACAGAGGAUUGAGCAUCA` is reported as 0.332 ratio.
With `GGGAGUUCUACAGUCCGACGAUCAUCUUUGGCUAGUGCUUUUCAAUUAUCUGAAGAUGGAGACUCAAUUCCUUAUACUAUUAAUAGGUACUUGCGAGAUUACCAAAGGGAGGGGGCUCAGUUCCUCUACAGACACUACAUAGACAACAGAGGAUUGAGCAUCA` the bound/input enrichment was 1.03 ratio.
With `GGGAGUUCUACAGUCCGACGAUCCUGAUAAUAGCCUAAGUCUUCUUUUCUUUUUUUUAGGCAUACUGAAUUUCUGUUUUAAAAUCCAUUGCAUGAAAAUUCAAUUUGCCUUGGUAUAUGCAGUUAGCAUUGCCAUUUUAAAAACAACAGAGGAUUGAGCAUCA` the bound/input enrichment was 1.1 ratio.
`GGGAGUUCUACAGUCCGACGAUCGAUGCUGUGGCAGCUAUGGCAAAAGACAAAGCUAAUAUGCAACACAGAUAUGUGGAGCUCUUCUUAAAUUCUACUGCAGGAACAAGUGGGGGUGCUUACGAUCACAGCUAUGUAGAACUUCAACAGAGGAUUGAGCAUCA` has a bound/input enrichment of 0.401 ratio.
For `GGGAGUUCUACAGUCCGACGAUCAGUGAAGUCCAGGCAAACCUUUCUCUGUUCCUAGAGGCAGCUAGCGGCUUCUAUACUCAGUUAUUACAGGAACUGUGUACGGUGUUUAAUGUAGAUUUGCCAUGCCGUGUGAAGUCUUCCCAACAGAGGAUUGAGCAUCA`, the bound/input enrichment was 0.0818 ratio.
`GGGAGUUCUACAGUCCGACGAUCAAUAAGGAAAAGUAUGGCAAACCAAAUAAACGGAAAGGUUUUAAUGAAGGAUUGUGGGAGAUAGAUAACAAUCCGAAAGUGAAAUUUUCAAGUCAACAGGCAUCAACUAAACAAUCCAAUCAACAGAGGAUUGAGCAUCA` gave a bound/input enrichment of 0.246 ratio.
`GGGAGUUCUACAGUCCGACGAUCCAGGAGCAGGGGCCCUGGCCUCCAUUCCCAUGUGUUGACUCACAACUGUUUGUAAUUCCAGUUCCAGGGUAUCUGACAUCCUCCUCUGGUCUCCUCACGCAUAUGUGUGGUACACAAACACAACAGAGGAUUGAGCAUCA` gave a bound/input enrichment of 0.166 ratio.

Study 5 — method: protein binding microarray; molecule type: double-stranded DNA, one strand shown; medium: in vitro; concentration: not given; baseline: not given; reading: higher = stronger binding
Target: Histone acetyltransferase KAT6A, both winged helices, GST fusion (KAT6A, Homo sapiens, UniProt Q92794, residues 1-181)
Setting: 8-mer, flanks averaged, mean of 2 arrays, mostly near background
Residues (chain): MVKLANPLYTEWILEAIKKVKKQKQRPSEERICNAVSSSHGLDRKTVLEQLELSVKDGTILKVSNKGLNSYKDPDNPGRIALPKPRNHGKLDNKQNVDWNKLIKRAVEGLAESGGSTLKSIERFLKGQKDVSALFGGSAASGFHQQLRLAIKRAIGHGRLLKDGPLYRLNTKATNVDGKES
`GATGTCAC` gave an E-score of -0.0555.
With `GTCACCAC` the E-score was 0.00245.
For `ATGCCACC`, the E-score was -0.104.
`ACACGCAA` has an E-score of 0.113.
With `GAGTAGAA` the E-score was -0.0818.
With `ATGGGCGG` the E-score was 0.0659.
For `AGTTGGGA`, the E-score was -0.191.
`CTGCAAGA` has an E-score of 0.0788.
`ACGACCCC` has an E-score of -0.0281.
The E-score of `CCGCACGG` is reported as 0.33.
`CCACGTAG` has an E-score of -0.162.
`ATGTTGTA` gave an E-score of -0.0664.
The E-score of `GTTGATCA` is reported as 0.0683.
With `CCAAGATC` the E-score was -0.0234.
With `AGTGCGTA` the E-score was 0.087.
`ATTGCAGG` has an E-score of -0.106.
The E-score of `ACCAGTAT` is reported as -0.0483.
The E-score of `GGGGTTAA` is reported as -0.107.
`ATGTAGTA` has an E-score of -0.0599.
`GACGGTAA` gave an E-score of 0.276.
With `CAATCGTC` the E-score was -0.0308.
`CGACCATA` has an E-score of 0.0369.
The E-score of `CCACCAGC` is reported as -0.182.
`ATCGACGG` gave an E-score of 0.163.
The E-score of `ATTCTACC` is reported as -0.0555.

Excerpt of the above (study 2):
The E-score of `TAGTCAAA` is reported as 0.259.
`GTTGGCCA` gave an E-score of -0.297.
The E-score of `TGTCAACA` is reported as 0.122.
`CCTGTAAG` has an E-score of -0.112.
With `ACCGCGGG` the E-score was -0.368.
For `CGGCATCA`, the E-score was -0.144.
`TTGGACAA` gave an E-score of 0.116.
`AAGGGCTC` gave an E-score of -0.17.
For `CACAACAC`, the E-score was 0.0979.
With `GCCGCCAC` the E-score was -0.359.
With `TCGCAAAA` the E-score was 0.142.
